Results pooled from the literature.
Parts stem from different laboratories: compare values within a part only.
UniProt P9WI81, sequence (whole entry, looked up): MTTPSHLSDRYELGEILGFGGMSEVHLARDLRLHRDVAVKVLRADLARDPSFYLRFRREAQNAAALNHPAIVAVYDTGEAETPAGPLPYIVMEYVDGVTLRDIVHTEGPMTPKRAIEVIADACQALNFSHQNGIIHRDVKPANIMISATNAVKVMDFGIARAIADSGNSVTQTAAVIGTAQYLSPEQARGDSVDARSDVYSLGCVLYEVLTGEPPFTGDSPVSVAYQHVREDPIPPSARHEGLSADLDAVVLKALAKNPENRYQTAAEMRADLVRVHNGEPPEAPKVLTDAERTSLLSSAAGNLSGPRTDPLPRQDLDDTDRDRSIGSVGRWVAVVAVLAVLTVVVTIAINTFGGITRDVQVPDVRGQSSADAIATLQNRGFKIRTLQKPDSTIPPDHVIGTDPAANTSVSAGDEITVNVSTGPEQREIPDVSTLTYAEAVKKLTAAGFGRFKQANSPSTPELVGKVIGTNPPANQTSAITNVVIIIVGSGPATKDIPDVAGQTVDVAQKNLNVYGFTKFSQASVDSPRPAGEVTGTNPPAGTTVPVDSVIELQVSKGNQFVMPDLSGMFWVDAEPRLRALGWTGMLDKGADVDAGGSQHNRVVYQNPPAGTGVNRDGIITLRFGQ

Set 1 — effect on: enzyme activity; action: inhibitor; concentration: 10 µM
Target: Calcium/calmodulin-dependent protein kinase type II subunit alpha (CAMK2A, Homo sapiens, UniProt Q9UQM7)
UniProt Q9UQM7, sequence (whole entry, looked up): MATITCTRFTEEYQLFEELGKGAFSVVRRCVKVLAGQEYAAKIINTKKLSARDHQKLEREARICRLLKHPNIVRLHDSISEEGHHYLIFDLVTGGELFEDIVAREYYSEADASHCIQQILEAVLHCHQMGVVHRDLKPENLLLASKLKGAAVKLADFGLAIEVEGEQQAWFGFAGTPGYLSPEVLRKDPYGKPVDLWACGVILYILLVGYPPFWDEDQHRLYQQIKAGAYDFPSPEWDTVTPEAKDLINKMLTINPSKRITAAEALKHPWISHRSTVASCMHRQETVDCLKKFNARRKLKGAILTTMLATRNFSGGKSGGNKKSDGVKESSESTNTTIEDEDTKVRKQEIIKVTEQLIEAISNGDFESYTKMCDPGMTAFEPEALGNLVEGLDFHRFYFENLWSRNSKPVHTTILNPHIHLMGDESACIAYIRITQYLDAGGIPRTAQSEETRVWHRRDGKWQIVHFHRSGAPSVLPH
Oc1ccc2ccc3cccc4ccc1c2c34 gave an inhibition of 11%.
The inhibition of COc1cc([C@@H]2c3cc4c(cc3C[C@H]3COC(=O)[C@@H]32)OCO4)cc(OC)c1OC is reported as -16%.
c1c2c(cc3c1OCO3)-c1cc3cc4c(cc3c[n+]1CC2)OCO4 has an inhibition of 0%.
Cc1cccc(C=O)c1 has an inhibition of 0%.
C=CCC(C(=O)NC(N)=O)C(C)C (stereo not shown) gave an inhibition of -5%.
O=C(O)CCCCCCCCCCCO gave an inhibition of 4%.

Set 2 — target: panel of 300 human kinases; concentration: 0.5 µM; direction: higher = more selective
With O=c1[nH]c2ccccc2n1C1CCN(Cc2ccc(-c3[nH]c4cc5ncnc5cc4nc3-c3ccccc3)cc2)CC1 the Gini score was 0.75.
O=C1NC(=O)c2c1c1c3ccccc3n3c1c1c2c2ccccc2n1[C@H]1CC[C@@H]3O1 gave a Gini score of 0.36.
For CC(C)(C)c1cc(C=C(C#N)C#N)cc(Br)c1O, the Gini score was 0.71.
For COC[C@H]1OC(=O)c2coc3c2[C@@]1(C)C1=C(C3=O)[C@@H]2CCC(=O)[C@@]2(C)C[C@H]1OC(C)=O, the Gini score was 0.59.
CN[C@@H]1C[C@H]2O[C@@](C)([C@@H]1OC)n1c3ccccc3c3c4c(c5c6ccccc6n2c5c31)C(=O)NC4 has a Gini score of 0.2.

Mixed results
CRK2: Cyclin-dependent kinase 2 homolog (CRK2, Plasmodium falciparum, UniProt P61075)
UniProt P61075, sequence (whole entry, looked up): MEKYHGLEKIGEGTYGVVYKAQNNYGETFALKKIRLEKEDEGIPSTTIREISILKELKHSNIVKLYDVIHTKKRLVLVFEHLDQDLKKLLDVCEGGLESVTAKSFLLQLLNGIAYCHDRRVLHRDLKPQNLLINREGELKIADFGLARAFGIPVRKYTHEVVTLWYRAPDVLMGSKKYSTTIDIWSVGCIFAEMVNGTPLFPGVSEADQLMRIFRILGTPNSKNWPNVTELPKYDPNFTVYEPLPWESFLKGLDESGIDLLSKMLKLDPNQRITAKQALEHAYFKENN
For O=c1nc(-c2ccccn2)sc2ccccc12, the remaining binding was 100% (CRK2; cell-free assay, competition with immobilised ligand; 1 µM).
With NC(=O)C[S+]([O-])C(c1ccccc1)c1ccccc1 (stereo not shown) the nuclei count was 0.0547 z-score (mouse MPNST tumor cells; high-content nuclear imaging, measured: cell number; 10 µM, 12 h, mean of 2 replicates; reference: plate mean, higher = more cells).
Cc1cc(NC(=O)c2cccc(S(F)(F)(F)(F)F)c2)cc(-n2ccn3nc(-c4cccnc4)cc23)c1 has a remaining binding of 71.8% (CRK2; cell-free assay, competition with immobilised ligand; 1 µM).
The nuclei count of Cc1cccc(C(C)c2c[nH]cn2)c1C (stereo not shown) is reported as 0.91 z-score (mouse MPNST tumor cells; high-content nuclear imaging, measured: cell number; 10 µM, 12 h, mean of 2 replicates; reference: plate mean, higher = more cells).
COc1cccc(CNC(=O)c2nc3scc(COCc4ccc(C(=O)O)cc4)c3c(=O)[nH]2)c1 gave a remaining binding of 93% (Serine/threonine-protein kinase PknB (pknB, Mycobacterium tuberculosis, UniProt P9WI81); cell-free assay, competition with immobilised ligand; 1 µM).

Repeated from above (set 2):
CN[C@@H]1C[C@H]2O[C@@](C)([C@@H]1OC)n1c3ccccc3c3c4c(c5c6ccccc6n2c5c31)C(=O)NC4 has a Gini score of 0.2.
